Results pooled from the literature.
Every numbered part comes from another study and shows a few of its results, in no order. “And” joins repeats or separate records; there may be more than shown.
Chain of UniProt P10721 (whole entry, unmodified, looked up): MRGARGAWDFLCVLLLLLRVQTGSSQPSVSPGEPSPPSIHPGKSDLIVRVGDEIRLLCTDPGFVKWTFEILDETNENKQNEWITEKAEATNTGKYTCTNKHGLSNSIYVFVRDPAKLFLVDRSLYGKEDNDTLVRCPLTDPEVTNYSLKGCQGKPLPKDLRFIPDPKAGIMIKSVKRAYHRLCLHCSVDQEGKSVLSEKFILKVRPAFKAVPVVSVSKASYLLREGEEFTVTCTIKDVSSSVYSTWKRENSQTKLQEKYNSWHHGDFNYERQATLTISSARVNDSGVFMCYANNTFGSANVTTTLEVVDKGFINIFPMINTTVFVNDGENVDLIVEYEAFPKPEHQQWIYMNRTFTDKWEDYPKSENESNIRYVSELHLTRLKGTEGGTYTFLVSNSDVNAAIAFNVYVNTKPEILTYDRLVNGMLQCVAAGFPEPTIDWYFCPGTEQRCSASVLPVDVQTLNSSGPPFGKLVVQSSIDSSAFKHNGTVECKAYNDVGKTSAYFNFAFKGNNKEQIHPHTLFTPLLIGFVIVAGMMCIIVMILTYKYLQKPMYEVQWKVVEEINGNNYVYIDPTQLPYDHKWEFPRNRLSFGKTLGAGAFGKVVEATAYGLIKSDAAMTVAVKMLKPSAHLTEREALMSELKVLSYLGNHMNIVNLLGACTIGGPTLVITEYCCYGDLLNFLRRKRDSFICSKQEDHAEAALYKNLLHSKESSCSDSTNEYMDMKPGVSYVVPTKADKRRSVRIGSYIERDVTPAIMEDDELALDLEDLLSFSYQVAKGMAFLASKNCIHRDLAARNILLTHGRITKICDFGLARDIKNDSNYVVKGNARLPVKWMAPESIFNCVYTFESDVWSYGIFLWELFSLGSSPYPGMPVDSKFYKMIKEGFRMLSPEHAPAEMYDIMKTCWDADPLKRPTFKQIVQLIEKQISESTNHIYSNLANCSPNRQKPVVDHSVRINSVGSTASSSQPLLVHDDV
Chain of UniProt P49761 (whole entry, looked up): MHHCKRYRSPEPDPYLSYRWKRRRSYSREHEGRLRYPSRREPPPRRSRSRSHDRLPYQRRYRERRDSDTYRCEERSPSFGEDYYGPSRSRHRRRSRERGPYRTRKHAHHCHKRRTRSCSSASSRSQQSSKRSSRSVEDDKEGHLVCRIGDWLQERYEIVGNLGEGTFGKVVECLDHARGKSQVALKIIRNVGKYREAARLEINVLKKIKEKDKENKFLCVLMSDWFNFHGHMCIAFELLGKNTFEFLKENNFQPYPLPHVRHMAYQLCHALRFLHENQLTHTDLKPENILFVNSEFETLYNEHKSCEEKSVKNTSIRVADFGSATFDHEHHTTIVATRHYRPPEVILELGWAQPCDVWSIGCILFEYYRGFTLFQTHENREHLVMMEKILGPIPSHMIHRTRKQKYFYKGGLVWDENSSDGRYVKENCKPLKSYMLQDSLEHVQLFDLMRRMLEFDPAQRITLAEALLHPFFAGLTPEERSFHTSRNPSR
Chain of UniProt Q07912 (whole entry, looked up): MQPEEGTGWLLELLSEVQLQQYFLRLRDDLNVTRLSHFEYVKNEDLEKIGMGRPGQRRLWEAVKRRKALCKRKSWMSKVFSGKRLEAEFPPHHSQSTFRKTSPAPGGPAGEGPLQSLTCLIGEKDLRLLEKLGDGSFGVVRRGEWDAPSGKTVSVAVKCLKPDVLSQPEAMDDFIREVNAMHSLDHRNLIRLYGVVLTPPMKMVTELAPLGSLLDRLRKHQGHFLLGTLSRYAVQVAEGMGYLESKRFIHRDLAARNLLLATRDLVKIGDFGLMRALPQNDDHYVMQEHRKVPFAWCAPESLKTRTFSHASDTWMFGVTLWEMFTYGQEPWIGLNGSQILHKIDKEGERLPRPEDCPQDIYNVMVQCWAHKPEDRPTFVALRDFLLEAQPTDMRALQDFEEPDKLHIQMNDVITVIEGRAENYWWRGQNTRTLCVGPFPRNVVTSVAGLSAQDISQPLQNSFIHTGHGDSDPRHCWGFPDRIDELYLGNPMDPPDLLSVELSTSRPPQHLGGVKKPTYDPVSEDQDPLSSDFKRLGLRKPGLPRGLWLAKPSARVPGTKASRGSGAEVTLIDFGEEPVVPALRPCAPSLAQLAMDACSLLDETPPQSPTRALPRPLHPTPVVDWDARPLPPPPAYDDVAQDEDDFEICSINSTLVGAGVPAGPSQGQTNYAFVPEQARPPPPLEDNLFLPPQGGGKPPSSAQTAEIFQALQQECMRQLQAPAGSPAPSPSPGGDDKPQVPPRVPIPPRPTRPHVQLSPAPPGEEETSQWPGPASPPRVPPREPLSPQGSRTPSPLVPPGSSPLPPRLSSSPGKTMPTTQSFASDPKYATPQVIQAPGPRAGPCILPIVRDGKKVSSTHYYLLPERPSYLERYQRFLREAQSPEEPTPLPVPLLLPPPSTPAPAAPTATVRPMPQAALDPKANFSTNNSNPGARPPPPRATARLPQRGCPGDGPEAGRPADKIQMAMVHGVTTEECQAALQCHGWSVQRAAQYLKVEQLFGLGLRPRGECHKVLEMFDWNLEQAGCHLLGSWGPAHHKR
Chain of UniProt P29597 (whole entry, looked up): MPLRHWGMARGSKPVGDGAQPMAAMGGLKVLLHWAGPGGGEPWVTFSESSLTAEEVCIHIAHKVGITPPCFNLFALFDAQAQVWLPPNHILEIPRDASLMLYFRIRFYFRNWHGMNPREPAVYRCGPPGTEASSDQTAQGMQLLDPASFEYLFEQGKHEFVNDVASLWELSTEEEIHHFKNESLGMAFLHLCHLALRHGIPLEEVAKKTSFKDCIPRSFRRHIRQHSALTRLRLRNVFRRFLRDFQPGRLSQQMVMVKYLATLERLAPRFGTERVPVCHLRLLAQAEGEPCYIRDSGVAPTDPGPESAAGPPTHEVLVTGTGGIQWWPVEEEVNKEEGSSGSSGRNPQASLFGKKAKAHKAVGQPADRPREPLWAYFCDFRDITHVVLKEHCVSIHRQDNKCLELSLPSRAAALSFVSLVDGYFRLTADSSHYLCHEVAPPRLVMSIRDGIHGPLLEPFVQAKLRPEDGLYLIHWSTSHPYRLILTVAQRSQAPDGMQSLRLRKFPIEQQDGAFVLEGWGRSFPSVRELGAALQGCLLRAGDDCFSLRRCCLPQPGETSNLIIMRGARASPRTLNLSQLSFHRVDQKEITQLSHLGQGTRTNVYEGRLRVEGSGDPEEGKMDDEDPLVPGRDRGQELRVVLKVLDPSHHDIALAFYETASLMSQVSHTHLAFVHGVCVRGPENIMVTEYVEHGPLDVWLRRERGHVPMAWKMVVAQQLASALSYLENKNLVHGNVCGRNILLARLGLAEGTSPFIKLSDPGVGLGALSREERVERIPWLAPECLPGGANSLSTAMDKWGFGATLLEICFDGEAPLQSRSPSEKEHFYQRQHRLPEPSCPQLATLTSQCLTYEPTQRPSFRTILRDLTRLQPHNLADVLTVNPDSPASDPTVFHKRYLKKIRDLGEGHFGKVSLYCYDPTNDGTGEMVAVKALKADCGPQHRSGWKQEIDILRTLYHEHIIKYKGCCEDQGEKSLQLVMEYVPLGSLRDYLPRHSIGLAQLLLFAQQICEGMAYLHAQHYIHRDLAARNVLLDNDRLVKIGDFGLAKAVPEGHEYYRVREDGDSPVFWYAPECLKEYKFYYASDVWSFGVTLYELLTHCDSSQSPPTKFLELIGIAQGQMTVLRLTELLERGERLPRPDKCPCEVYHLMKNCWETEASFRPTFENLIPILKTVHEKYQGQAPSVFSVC
Chain of UniProt P42681 (whole entry, looked up): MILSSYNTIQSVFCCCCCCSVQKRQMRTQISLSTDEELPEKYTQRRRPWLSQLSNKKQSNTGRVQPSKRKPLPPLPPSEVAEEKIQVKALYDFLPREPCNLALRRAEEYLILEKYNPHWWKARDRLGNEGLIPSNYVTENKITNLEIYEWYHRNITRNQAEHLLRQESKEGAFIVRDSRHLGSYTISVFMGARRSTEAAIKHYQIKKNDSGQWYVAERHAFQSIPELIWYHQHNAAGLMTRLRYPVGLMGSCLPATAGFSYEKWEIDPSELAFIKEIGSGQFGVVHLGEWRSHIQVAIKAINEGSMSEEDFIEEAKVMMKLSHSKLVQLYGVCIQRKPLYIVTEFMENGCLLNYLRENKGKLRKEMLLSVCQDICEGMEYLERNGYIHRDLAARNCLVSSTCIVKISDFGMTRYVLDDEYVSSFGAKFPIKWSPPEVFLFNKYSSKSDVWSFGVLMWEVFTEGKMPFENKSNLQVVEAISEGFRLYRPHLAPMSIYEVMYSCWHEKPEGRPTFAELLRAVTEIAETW
Chain of UniProt Q9Y4K4 (whole entry, looked up): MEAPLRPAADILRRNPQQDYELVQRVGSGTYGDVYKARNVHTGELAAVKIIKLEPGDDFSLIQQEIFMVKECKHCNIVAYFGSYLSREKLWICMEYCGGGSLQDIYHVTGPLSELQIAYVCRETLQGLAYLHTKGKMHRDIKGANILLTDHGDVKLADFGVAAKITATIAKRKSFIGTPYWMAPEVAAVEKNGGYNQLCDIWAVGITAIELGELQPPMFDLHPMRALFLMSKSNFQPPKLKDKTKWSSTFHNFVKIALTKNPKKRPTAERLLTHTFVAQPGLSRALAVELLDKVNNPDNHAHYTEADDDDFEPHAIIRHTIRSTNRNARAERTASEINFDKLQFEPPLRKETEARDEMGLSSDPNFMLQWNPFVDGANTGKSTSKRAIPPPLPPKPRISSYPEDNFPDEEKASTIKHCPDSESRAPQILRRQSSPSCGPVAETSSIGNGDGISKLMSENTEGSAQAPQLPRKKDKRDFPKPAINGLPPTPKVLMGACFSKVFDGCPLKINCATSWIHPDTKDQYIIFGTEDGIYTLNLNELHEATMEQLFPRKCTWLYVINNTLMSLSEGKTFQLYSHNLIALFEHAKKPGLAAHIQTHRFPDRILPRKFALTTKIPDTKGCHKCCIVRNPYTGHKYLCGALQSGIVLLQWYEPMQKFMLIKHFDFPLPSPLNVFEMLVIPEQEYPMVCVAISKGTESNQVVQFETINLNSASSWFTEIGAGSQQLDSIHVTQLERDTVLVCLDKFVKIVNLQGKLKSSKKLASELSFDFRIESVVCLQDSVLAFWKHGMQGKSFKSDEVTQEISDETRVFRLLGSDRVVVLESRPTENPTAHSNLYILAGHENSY

Series 1
Host: human
Matrix: microsomes or S9
Concentration: 2 µM
Time: 0.5 h
SMILES | remaining compound [%]
OC(Cn1cnc2ccccc21)Cn1c2ccccc2c2ccccc21 (stereo not drawn) | 3.75
CCn1c(=O)c2sccc2n2c(CCC(=O)NCc3ccc(F)cc3)nnc12 | 48
CN(C)C(=O)C1CNCCN1C(=O)OC(C)(C)C (stereo not drawn) | 88.3
COc1nn(C)c(=O)n1-c1ccccc1NC(=O)c1ccc(Cl)cc1Cl | 86.8

Series 2
Organism: Sarcocystis neurona
Read-out: parasite growth
Concentration: 10 µM
Notes: secondary screen
SMILES | inhibition
CC(=O)NC[C@H]1CN(c2ccc(N3CCOCC3)c(F)c2)C(=O)O1 | 7.1%
Cc1ccc(S(=O)(=O)NC(=O)NN2CCCCCC2)cc1 | -17.5%
C[C@@](Cc1ccc(O)c(O)c1)(NN)C(=O)O | -33.7%
Fc1ccc([C@@H]2CCNC[C@H]2COc2ccc3c(c2)OCO3)cc1.O=C(O)/C=C\C(=O)O | -5%
CCCCC(=O)O[C@H]1CC[C@H]2[C@@H]3CCc4cc(O)ccc4[C@H]3CC[C@]12C | -44.8%

Series 3
Compound: Cc1ccc(NC(=O)c2ccnc(C(F)(F)F)c2)cc1-c1cc(OCCO)nc(N2CCOCC2)c1
Read-out: binding
Concentration: 1 µM
target | method | remaining binding [%]
Mast/stem cell growth factor receptor Kit (KIT, Homo sapiens, UniProt P10721, D816V) |  | 70
Serine/threonine-protein kinase WNK3 (WNK3, Homo sapiens, UniProt Q9BYP7) |  | 70
Non-receptor tyrosine-protein kinase TYK2, JH2 (TYK2, Homo sapiens, UniProt P29597) | competition with immobilised ligand | 100
Dual specificity protein kinase CLK3 (CLK3, Homo sapiens, UniProt P49761) |  | 100

Series 4
Cell line: A-375
Concentration: 100 µM
Time: 36 h
SMILES | viability
CCC[C@H](N[C@@H](C)C(=O)N1[C@H](C(=O)O)C[C@@H]2CCCC[C@@H]21)C(=O)OCC | 108%
O=C(Nc1c(Cl)cncc1Cl)c1ccc(OC(F)F)c(OCC2CC2)c1 | 55.9%
N[C@@H](Cc1c[nH]c2ccc(O)cc12)C(=O)O | 119%
CCCCC(CC)COC(=O)CC(C(=O)OCC(CC)CCCC)S(=O)(=O)O (stereo not drawn) | 1.13%
c1ccc2[nH]c(-c3cscn3)nc2c1 | 91.8%

Series 5
Structure (SMILES): CN([C@@H]1CCc2c(CC(=O)O)c3cc(S(C)(=O)=O)ccc3n2C1)S(=O)(=O)c1ccc(F)cc1
Read-out: cell-free assay
Method: competition with immobilised ligand
Concentration: 1 µM
target | remaining binding [%]
Mast/stem cell growth factor receptor Kit (KIT, Homo sapiens, UniProt P10721) | 86
Epithelial discoidin domain-containing receptor 1 (DDR1, Homo sapiens, UniProt Q08345) | 100
Tyrosine-protein kinase ABL1, phosphorylated (ABL1, Homo sapiens, UniProt P00519, Q252H) | 79
Activated CDC42 kinase 1 (TNK2, Homo sapiens, UniProt Q07912) | 92
Mast/stem cell growth factor receptor Kit (KIT, Homo sapiens, UniProt P10721, D816V) | 95
Tyrosine-protein kinase TXK (TXK, Homo sapiens, UniProt P42681) | 74
Tyrosine-protein kinase ABL1, non-phosphorylated (ABL1, Homo sapiens, UniProt P00519) | 95
1-phosphatidylinositol 3-phosphate 5-kinase (PIKFYVE, Homo sapiens, UniProt Q9Y2I7) | 97
SRSF protein kinase 2 (SRPK2, Homo sapiens, UniProt P78362) | 100
Mast/stem cell growth factor receptor Kit (KIT, Homo sapiens, UniProt P10721, V559D/V654A) | 100
Fibroblast growth factor receptor 2 (FGFR2, Homo sapiens, UniProt P21802) | 89
Mitogen-activated protein kinase kinase kinase kinase 5 (MAP4K5, Homo sapiens, UniProt Q9Y4K4) | 100
Serine/threonine-protein kinase PLK2 (PLK2, Homo sapiens, UniProt Q9NYY3) | 90
Protein kinase C delta type (PRKCD, Homo sapiens, UniProt Q05655) | 100
Epidermal growth factor receptor (EGFR, Homo sapiens, UniProt P00533, del752-759) | 100
Cyclin-dependent kinase-like 1 (CDKL1, Homo sapiens, UniProt Q00532) | 100
Ephrin type-A receptor 5 (EPHA5, Homo sapiens, UniProt P54756) | 78

Single results of other studies
Structure (SMILES) | target | test | system | conditions | scale | endpoint | value
Cn1cnc(Cn2ccc3ccc(CNCc4[nH]c5ccccc5c4[C@H]4NC(=O)c5ccc(O)cc54)cc32)c1 | GTPase KRas (KRAS, Homo sapiens, UniProt P01116, G12C) | binding, competitor, NanoBRET | HEK293 | 27.4 nM, 0.5 h | relative to: vehicle and 20 µM BI compound | normalized BRET | 102% and 86.3% and 100% and 98.5%

Excerpt of the above (series 5):
target | remaining binding [%]
Tyrosine-protein kinase ABL1, non-phosphorylated (ABL1, Homo sapiens, UniProt P00519) | 95
1-phosphatidylinositol 3-phosphate 5-kinase (PIKFYVE, Homo sapiens, UniProt Q9Y2I7) | 97
SRSF protein kinase 2 (SRPK2, Homo sapiens, UniProt P78362) | 100
